Experimental data gathered from unrelated publications.
Numbered parts are unrelated; each lists some results of a single study.

Block 1
Target: Interferon regulatory factor 5, full length, phosphomimetic (IRF5, Homo sapiens, UniProt Q13568-2, residues 1-514, S451D/S453D/S456D/S462D)
Technique: protein-binding microarray
Form: double-stranded DNA, one strand shown
Sample: in vitro
Tested at: 940 nM top
Setting: 60-bp whole probe
Added: salmon DNA 0.4 mg/ml
Relative to: random background probes
Reading: higher = stronger binding
All sequences stand within: GCCTAGCAC … GTCTTGATTCGCTTGACGCTGCTG
| Oligonucleotide | fitted relative affinity [z-score] |
| --- | --- |
| GACGGTCTCGGTATCGGGAGGTGCTAG | 4.66 |
| TCATCTGTCCGTGCTCAGACTGTGCTA | -0.128 |
| TCACTTCTGGTCTTCTGACTGTGCTAG | 0.582 |
| TTAGGTATCGACACTCGGTTAGTGCTA | 4.89 |
| GACGAACTGATACTGGAGACGTGCTAG | -0.0217 |
| GACGGTATCAGGACTGGGGACGTGCTA | 0.909 |

Block 2
Target: Histone acetyltransferase KAT6A, both winged helices, GST fusion (KAT6A, Homo sapiens, UniProt Q92794, residues 1-181)
Technique: protein binding microarray
Form: double-stranded DNA, one strand shown
Sample: in vitro
Tested at: not given
Setting: 8-mer, flanks averaged, mean of 2 arrays, mostly near background
Relative to: not given
Reading: higher = stronger binding
Residues (chain): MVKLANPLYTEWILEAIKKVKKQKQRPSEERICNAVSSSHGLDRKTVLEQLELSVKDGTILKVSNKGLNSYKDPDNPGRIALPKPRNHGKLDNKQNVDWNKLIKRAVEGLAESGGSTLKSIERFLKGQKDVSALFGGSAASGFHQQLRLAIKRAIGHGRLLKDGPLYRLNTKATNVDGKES
| Oligonucleotide | E-score |
| --- | --- |
| ACAAGCGA | 0.0032 |
| ATACGTAG | -0.0224 |
| CAATGGCA | -0.0491 |
| ATCGTGTA | -0.13 |
| GATCTGGC | -0.0456 |

Further values, each from its own experiment
G3BP1 full length: Ras GTPase-activating protein-binding protein 1, full length (G3BP1, Homo sapiens, UniProt Q13283)
UniProt Q13283, sequence (whole entry, looked up): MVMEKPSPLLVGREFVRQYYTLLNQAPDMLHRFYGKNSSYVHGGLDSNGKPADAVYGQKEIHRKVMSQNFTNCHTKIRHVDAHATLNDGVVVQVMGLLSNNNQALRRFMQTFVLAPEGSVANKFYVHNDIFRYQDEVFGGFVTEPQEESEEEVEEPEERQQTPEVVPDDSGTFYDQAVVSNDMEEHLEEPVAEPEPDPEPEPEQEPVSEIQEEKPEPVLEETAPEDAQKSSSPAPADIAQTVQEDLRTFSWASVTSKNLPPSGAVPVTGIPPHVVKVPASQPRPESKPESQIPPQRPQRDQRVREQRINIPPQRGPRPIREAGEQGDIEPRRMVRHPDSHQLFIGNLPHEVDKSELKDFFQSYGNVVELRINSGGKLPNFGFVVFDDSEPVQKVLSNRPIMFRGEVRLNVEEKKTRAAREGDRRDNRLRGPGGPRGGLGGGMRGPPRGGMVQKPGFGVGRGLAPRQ
| Substance | target | test | test system | conditions | scale | measurement | value |
| --- | --- | --- | --- | --- | --- | --- | --- |
| GGGAGUUCUACAGUCCGACGAUCCAAGUCCUGUGCUACACAUCGUAUGUACCGAAUCGGUUUGGAAAAAGGAAAAAGGAAAGUAUUAUGUUACGCCGUUCGGAUCUGCACUUCUGGAAUUCUCGGGUGUCAAGG (7-deaza-guanosine replaces G) | G3BP1 full length | RNA Bind-n-Seq | RNA, in vitro | 200 nM, whole 134-nt RNA, ends assumed, added: 150 mM LiCl | relative to: input library, higher = stronger binding | log2 enrichment | -0.927 |
| PhoQ, residues 284 288 289 292 302 303 GNNTDL | PhoP, residues 12 14 15 18 19 NIMAP (Escherichia coli, UniProt P23836) | Sort-seq, measured: YFP reporter | E. coli | PhoQ-PhoP variant library, added: 10 µM Mg2+ | relative to: high Mg2+ state, higher = stronger signaling | fold induction | 0.589 |
| GGGAGUUCUACAGUCCGACGAUCUGGGAGGUGGAUUUUGUUUAUUUUUUUAGCUCAUUUCCAGGGGUGGGAAUUUUUUUUUAAUAUGUGUCAUGAAUAAAGUUUUUUUUGAAAUGGAAUUCUCGGGUGUCAAGG (7-deaza-guanosine replaces G) | Fragile X messenger ribonucleoprotein 1, C-terminal low-complexity region (Fmr1, Mus musculus, UniProt P35922) | RNA Bind-n-Seq | RNA, in vitro | 200 nM, whole 134-nt RNA, ends assumed, added: 150 mM LiCl | relative to: input library, higher = stronger binding | log2 enrichment | 0.336 |
| GGGAGUUCUACAGUCCGACGAUCCAAGUCCUGUGCUACACAUCGUAUGUACCGAAUCGGGAAAAGGAAAAGGAAAAGGGAAAGUAUUAUGUUACGCCGUUCGGAUCUGCACUUUGGAAUUCUCGGGUGUCAAGG | G3BP1 full length | RNA Bind-n-Seq | RNA, in vitro | 200 nM, whole 134-nt RNA, ends assumed, added: 150 mM KCl | relative to: input library, higher = stronger binding | log2 enrichment | -0.885 |
| GGGAGUUCUACAGUCCGACGAUCUCAAGUCCUGUGCUACACAUCGUAUGUACCGAAUCGGGCCCGGGCCCGGGCCCGGAAAGUAUUAUGUUACGCCGUUCGGAUCUGCACUUCUGGAAUUCUCGGGUGUCAAGG | G3BP1 full length | RNA Bind-n-Seq | RNA, in vitro | 200 nM, whole 134-nt RNA, ends assumed, added: 150 mM KCl | relative to: input library, higher = stronger binding | log2 enrichment | -1.21 |

A few entries again (block 2):
| Oligonucleotide | E-score |
| --- | --- |
| CAATGGCA | -0.0491 |
